Measured values gathered from unrelated publications.
Several values in a cell are separate wells, animals, samples, runs or records. ± marks the error that the study gave. ≈ marks a conversion by molar mass, not a printed value.
NQO2: Ribosyldihydronicotinamide dehydrogenase [quinone] (NQO2, Homo sapiens, UniProt P16083)
Grin1/Grin2b: Glutamate NMDA receptor; Grin1/Grin2b (Grin1/Grin2b, Rattus norvegicus, UniProt P35439+Q00960)
ALOX5: Polyunsaturated fatty acid 5-lipoxygenase (ALOX5, Homo sapiens, UniProt P09917)

The chains behind the UniProt entries cited, without tags or fusion partners. Residues count along the entry.
UniProt P16083, whole entry: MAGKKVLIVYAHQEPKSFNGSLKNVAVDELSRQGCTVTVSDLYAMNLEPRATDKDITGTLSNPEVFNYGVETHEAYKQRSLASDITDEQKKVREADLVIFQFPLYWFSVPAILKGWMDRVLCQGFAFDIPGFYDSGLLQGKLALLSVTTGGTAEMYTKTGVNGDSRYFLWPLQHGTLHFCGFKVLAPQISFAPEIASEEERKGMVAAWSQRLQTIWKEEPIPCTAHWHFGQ
UniProt Q00960, 27-1482 limits assumed: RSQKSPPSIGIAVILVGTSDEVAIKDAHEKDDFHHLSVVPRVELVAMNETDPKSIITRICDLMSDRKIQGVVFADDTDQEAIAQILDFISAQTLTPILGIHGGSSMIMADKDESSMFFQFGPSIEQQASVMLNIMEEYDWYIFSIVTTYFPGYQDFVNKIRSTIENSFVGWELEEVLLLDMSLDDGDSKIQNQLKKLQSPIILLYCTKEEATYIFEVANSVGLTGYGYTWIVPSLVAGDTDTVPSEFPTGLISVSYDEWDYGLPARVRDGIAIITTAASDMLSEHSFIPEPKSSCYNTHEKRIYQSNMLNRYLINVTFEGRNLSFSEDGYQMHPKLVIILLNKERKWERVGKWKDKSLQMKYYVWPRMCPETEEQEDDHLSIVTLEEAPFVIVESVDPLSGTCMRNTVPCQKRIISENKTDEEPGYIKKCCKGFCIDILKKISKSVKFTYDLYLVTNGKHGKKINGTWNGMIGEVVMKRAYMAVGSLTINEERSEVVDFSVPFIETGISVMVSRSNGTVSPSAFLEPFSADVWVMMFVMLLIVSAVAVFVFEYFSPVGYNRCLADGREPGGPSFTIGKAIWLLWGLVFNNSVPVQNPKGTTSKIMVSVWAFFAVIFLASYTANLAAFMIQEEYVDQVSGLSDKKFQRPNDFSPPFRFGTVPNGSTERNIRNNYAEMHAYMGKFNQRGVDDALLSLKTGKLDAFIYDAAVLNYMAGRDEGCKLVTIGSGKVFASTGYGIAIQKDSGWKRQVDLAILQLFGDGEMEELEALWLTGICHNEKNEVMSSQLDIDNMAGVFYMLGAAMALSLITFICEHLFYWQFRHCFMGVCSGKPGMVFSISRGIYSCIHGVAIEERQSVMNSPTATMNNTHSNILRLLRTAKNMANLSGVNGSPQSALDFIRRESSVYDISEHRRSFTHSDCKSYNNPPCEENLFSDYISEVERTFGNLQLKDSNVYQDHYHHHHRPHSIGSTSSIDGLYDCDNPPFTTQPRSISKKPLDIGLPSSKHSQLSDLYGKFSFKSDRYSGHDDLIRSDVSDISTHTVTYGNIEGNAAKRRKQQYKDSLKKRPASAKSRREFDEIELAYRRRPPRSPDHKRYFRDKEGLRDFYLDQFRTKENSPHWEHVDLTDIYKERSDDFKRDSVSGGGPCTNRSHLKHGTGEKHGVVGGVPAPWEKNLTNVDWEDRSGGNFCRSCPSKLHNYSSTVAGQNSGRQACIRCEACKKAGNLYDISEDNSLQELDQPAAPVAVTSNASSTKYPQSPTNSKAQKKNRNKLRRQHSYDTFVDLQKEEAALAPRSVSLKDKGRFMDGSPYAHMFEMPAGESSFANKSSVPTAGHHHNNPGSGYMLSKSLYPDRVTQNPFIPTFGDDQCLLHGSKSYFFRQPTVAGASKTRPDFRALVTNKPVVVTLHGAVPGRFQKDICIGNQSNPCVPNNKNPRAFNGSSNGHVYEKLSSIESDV
UniProt P09917, whole entry: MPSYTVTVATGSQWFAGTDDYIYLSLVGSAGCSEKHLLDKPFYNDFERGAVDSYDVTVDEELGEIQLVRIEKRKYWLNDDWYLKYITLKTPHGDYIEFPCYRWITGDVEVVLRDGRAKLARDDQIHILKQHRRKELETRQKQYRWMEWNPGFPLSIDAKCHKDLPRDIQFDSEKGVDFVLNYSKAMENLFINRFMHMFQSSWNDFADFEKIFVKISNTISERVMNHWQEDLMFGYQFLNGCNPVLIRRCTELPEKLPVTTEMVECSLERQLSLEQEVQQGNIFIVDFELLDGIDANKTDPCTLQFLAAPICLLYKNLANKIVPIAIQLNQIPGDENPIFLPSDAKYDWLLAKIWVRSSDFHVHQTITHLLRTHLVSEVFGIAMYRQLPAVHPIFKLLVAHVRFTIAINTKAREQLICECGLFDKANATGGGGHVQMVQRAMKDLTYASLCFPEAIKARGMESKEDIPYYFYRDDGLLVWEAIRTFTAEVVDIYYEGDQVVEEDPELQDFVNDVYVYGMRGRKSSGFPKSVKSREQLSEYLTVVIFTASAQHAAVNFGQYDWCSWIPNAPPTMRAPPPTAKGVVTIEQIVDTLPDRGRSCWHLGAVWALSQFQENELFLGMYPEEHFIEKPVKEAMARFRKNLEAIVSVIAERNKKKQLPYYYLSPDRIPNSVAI
UniProt A0A0D3D890, 1-1525: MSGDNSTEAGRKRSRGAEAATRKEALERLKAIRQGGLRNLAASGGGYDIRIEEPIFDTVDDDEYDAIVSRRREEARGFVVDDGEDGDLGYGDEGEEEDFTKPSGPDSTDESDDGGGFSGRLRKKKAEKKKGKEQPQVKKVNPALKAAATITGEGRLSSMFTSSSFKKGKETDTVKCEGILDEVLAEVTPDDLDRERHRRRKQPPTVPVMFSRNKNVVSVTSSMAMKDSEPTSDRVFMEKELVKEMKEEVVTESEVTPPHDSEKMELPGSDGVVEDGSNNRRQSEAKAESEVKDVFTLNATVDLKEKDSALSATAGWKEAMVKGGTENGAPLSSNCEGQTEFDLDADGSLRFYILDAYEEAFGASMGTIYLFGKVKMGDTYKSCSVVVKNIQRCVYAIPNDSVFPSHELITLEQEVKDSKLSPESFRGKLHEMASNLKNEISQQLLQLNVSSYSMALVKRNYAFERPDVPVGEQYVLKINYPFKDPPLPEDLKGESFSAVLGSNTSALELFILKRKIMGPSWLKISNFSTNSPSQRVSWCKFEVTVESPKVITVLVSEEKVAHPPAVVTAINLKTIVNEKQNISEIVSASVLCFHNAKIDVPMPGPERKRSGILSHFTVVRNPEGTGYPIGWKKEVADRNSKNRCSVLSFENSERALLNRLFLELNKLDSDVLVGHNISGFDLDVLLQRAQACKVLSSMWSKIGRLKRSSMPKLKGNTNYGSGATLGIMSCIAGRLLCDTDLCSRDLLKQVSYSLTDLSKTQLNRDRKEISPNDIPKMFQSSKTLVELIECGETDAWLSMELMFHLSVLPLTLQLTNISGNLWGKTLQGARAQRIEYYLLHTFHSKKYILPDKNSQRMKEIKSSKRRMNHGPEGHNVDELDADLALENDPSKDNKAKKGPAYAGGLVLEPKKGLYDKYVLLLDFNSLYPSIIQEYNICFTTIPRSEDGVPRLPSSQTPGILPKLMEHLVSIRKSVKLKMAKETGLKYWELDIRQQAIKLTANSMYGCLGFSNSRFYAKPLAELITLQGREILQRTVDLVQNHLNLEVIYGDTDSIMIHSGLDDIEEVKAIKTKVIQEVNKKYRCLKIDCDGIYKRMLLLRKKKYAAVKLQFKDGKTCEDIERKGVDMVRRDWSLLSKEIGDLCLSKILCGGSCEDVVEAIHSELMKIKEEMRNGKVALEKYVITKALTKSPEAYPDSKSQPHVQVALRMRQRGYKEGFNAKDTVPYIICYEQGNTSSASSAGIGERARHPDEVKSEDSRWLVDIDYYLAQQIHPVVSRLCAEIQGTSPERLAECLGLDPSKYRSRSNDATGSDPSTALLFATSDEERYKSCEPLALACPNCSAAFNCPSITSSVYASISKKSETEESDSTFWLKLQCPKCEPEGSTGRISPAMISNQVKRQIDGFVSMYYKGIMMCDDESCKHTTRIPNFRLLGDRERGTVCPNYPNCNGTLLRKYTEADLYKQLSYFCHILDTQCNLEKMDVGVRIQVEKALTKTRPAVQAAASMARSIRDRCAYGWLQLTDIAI
UniProt P48729, whole entry: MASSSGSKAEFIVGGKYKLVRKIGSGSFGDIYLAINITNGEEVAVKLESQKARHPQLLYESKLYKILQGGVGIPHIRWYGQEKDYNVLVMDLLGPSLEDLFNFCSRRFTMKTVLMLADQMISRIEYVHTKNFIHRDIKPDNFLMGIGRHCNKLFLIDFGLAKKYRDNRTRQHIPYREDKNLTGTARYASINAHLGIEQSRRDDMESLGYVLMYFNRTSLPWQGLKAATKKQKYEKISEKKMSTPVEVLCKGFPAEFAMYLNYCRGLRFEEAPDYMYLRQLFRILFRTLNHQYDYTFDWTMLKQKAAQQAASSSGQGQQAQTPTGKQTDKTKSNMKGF
UniProt O15151, 23-111 limits assumed: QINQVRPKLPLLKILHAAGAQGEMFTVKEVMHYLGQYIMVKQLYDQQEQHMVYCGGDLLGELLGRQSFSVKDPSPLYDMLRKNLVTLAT
UniProt P11245, whole entry: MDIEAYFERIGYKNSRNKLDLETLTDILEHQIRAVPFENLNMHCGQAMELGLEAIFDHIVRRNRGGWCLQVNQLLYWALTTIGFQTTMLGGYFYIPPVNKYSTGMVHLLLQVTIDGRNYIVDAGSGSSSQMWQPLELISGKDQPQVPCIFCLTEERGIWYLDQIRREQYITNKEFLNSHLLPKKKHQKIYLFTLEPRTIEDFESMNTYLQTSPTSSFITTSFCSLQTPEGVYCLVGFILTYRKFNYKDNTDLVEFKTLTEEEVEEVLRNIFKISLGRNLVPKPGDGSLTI
UniProt P18440, whole entry: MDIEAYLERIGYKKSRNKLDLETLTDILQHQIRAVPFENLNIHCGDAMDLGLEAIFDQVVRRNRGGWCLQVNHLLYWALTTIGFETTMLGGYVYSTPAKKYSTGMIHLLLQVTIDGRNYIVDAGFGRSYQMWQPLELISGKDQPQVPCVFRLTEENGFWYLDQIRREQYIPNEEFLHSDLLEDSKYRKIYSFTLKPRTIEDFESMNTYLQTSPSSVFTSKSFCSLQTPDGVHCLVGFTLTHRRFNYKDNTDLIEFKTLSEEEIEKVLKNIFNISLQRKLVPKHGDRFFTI
UniProt P28072, 35-239 limits assumed: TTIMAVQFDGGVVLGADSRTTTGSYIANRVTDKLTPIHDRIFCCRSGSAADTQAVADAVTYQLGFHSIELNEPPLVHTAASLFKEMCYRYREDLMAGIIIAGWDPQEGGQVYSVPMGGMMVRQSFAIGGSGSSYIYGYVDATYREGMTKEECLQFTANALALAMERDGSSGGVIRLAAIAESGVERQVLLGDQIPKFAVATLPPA
UniProt Q16539, whole entry: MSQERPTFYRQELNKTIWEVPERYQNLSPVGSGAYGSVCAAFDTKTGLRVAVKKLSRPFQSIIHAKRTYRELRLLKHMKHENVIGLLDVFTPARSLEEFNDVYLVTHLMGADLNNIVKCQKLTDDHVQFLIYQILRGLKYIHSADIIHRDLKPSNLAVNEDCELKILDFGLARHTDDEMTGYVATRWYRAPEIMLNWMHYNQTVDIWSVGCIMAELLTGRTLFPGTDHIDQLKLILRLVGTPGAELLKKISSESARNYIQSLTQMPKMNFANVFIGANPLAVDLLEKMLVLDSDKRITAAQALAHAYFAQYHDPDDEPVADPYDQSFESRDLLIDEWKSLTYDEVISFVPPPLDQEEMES
UniProt Q08881, whole entry: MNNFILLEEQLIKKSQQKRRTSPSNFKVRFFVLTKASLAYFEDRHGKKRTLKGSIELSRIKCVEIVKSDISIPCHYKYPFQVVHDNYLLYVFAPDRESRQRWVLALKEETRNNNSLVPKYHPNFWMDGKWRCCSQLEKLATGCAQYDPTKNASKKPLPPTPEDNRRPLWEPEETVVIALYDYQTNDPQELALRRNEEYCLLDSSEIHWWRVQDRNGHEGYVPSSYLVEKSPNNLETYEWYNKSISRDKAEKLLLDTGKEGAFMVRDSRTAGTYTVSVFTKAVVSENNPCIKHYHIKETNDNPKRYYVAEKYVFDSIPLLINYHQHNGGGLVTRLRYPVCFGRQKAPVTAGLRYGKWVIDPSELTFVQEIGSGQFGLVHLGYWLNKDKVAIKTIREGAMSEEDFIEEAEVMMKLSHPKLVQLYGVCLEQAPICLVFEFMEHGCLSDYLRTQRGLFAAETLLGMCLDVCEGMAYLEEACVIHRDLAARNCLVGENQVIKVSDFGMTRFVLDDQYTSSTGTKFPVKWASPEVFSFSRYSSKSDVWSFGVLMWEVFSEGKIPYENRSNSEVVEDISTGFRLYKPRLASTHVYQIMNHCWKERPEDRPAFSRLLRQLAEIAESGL

| Structure (SMILES) | target or system | assay | test system | setting | scale | measurement | value |
| --- | --- | --- | --- | --- | --- | --- | --- |
| CCN(CC)CCCC(C)Nc1cc(-c2ccccc2)nc2cc(OC)ccc12 (stereo not drawn) | NQO2 | enzyme activity, inhibitor | – | with: 200 µM NRH, DCPIP, 2 µM BSA | – | IC50 | 0.86 ± 0.15 µM |
| CC/C=C\C/C=C\CCC/C=C/C=C/C=C\CCCC(=O)O | DNA polymerase (Brassica oleracea var. botrytis, UniProt A0A0D3D890) | enzyme activity, inhibitor | – | – | – | IC50 | > 100 µM |
| CN(C)CCNC(=O)c1cccc2ccc(-c3ccc(-c4ccccc4)cc3)nc12 | NQO2 | enzyme activity, inhibitor | – | with: 200 µM NRH, DCPIP, 2 µM BSA | – | IC50 | 0.08 ± 0.008 µM |
| CCc1ccccc1NC(=O)CSC(=O)NNC(=O)[C@@H](Cc1c[nH]c2ccccc12)NC(=O)OC(C)(C)C | Procathepsin L (CTSL, Homo sapiens, UniProt P07711) | enzyme activity, inhibitor | – | with: Z-Phe-Arg-AMC substrate | – | IC50 | 33 ± 1.75 µM |
| CN1C(=O)CCc2cc(CNC(C)(C)[C@@H](O)c3ccccc3)ccc21 | – | – | CD-1 mouse, male, plasma | subcutaneous, 10 mg/kg | – | half-life | 27.8 min |
| NC12CC3CC(F)(CC(C1)c1ccccc13)C2 | Glutamate NMDA receptor; Grin1/Grin2a (Grin1/Grin2a, Rattus norvegicus, UniProt P35439+Q00959) | ion current, channel blocker, whole-cell patch clamp | tsA201 cells | 0 mM Mg2+, -65 mV, with: 1 mM glutamate | – | IC50 | 4.4 ± 0.15 µM |
| CCCCCN(CCc1ccc(Cl)c(Cl)c1)C[C@H](O)COc1ccc(NS(C)(=O)=O)cc1 | Grin1/Grin2b | – | – | pH 7.6 | – | IC50 | 0.6 µM |
| [2H]C(C)(CO[C@H]1CC[C@H](CN2CCN(c3ccc4c(c3F)n(C)c(=O)n4C3CCC(=O)NC3=O)CC2)CC1)NS(=O)(=O)c1ccc(Nc2ncc(C(F)(F)F)c([C@H]3CC[C@@](C)(O)CC3)n2)c(C)c1 (stereo partly drawn) | ABCB1 (Homo sapiens, UniProt P08183) | bidirectional permeability | MDCK transfected with ABCB1 | – | baseline: B-A over A-B permeability | efflux ratio | > 26 |
| COc1ccc(C=CC(=O)c2ccc(O)cc2)c(O)c1 | ALOX5 | enzyme activity | cell-free | – | – | IC50 | 4.39 µM |
| CC(C)C[C@H](NC(=O)[C@@H](NC(=O)[C@H](CC(C)C)NC(=O)[C@H](CS)NC(=O)CNS(=O)(=O)c1cccc2c(N(C)C)cccc12)C(C)C)C(=O)O | geranylgeranyltransferase type-I (Rattus norvegicus, UniProt P53610+Q04631) | substrate, fluorescence | – | 30 °C, GGPP 10 µM/enzyme 10 nM, with: SmgGDS-607 5 µM/GTP 30 µM | – | kcat | 0.049 ± 0.016 s⁻¹ |
| COc1cc(O)ccc1C(=O)C=Cc1ccc(O)cc1 | ALOX5 | enzyme activity | cell-free | – | – | IC50 | 6.5 µM |
| Cc1ccc(-c2n[nH]cc2-c2ccnc3ccccc23)nc1 | CSNK1A1 (Homo sapiens, UniProt P48729) | kinase activity, inhibitor, ADP-Glo | – | with: ATP 10 µM | – | IC50 | > 15 µM |
| Cc1c(Cn2c(C)nc3c(C(=O)O)cc(N4CCOCC4)cc32)cccc1C(F)(F)F | C4-2B | cell growth, WST-8 | – | 3 days | – | EC50 | 24.8 µM |
| COc1cccc([C@@H]2N=C(c3ccc(OC)cc3OC(C)C)N(C(=O)N3CCNC(=O)C3)[C@@H]2c2ccc(Cl)cc2)c1 (relative stereo) | Protein Mdm4, N-terminal domain (MDM4, Homo sapiens, UniProt O15151) | MdmX-p53 binding, fluorescence polarization | – | MdmX residues 23-111 | – | IC50 | 24.9 µM |
| COc1ccc2[nH]c(C(=O)Nc3ccc(C(CC(C)C)=NNC(=N)N)cc3)cc2c1 | CHEK2 (Homo sapiens, UniProt O96017) | kinase activity, inhibitor, IMAP fluorescence polarization | – | – | – | IC50 | 0.00029 ± 0.00014 µM |
| NS(=O)(=O)c1nnc(NC(=O)CC2C3CC4CC(C3)CC2C4)s1 (stereo not drawn) | – | – | PBS | pH 7.4 | – | kinetic solubility | 57.3 µM (≈ 20.4 µg/mL) |
| N#Cc1c(-c2ccc(Cl)cc2Cl)n(-c2nc(-c3ccc(Cl)cc3)c3c(NC(=O)c4ccccc4)nnc-3[nH]2)[nH]c1=O | NCI60 panel | SRB | – | 10 µM | – | mean cell growth | 13.4% |

| Structure (SMILES) | target or system | assay | test system | setting | scale | measurement | value |
| --- | --- | --- | --- | --- | --- | --- | --- |
| CCCN(CCc1ccc(Cl)c(Cl)c1)C[C@H](O)COc1ccc(NS(C)(=O)=O)cc1 | Grin1/Grin2b | – | – | pH 6.9 | – | IC50 | 0.094 µM |
| CCOC(=O)C(C)Oc1ccc2c(=O)n(CC(=O)Nc3ccc4c(c3)OCCO4)ccc2c1 (stereo not drawn) | RARB (Homo sapiens, UniProt P10826) | inverse agonist, Gal4 UAS-luciferase reporter | HEK293T cells | – | – | IC50 | 0.45 µM |
| CC(C)N(CCc1ccc(Cl)c(Cl)c1)C[C@H](O)COc1ccc(NS(C)(=O)=O)cc1 | Grin1/Grin2b | – | – | pH 6.9 | – | IC50 | 0.19 µM |
| CCOC(=O)CCC(=O)Oc1cccc2c1C(=O)c1c(O)cccc1C2=O | NAT2 (Homo sapiens, UniProt P11245) | enzyme activity, inhibitor | recombinant in yeast lysate | with: 10 µM sulfamethazine and 100 µM acetyl-CoA | – | IC50 | > 2000 µM |
| CON(C1CC[C@@]2(C)[C@H](CC[C@@H]3[C@@H]2CC[C@]2(C)[C@@H](c4ccc(=O)oc4)CC[C@]32O)C1)C1OCC(O)C(O)C1O (stereo partly drawn) | Sodium/potassium-transporting ATPase subunit alpha-1 (atp1a1, Xenopus laevis, UniProt Q92123) | Na+/K+ pump current, inhibitor, two-electrode voltage clamp, item: endogenous pump current | uninjected Xenopus laevis oocytes | holding potential -60 mV | – | IC50 | ~0.05 µM and 0.047 µM |
| Cc1ccc(S(=O)(=O)Nc2ccccc2C(=O)Nc2nc(-c3ccccc3)cs2)cc1 | GALT-deficient patient fibroblasts | no effect, ATP luminescence | – | up to 25 µM, 24 h, 0.05% galactose challenge | – | viability | no effect |
| CN(C)CCNC(=O)c1cc([N+](=O)[O-])cc2ccc(-c3ccccc3)nc12 | NQO2 | enzyme activity, inhibitor | – | no BSA, with: 200 µM NRH, DCPIP | – | IC50 | 0.04 ± 0.01 µM |
| CCOC(=O)c1c(-c2ccc(Cl)cc2Cl)n(-c2nc(-c3ccc(Cl)cc3)c3c(NC(=O)c4ccccc4)nnc-3[nH]2)[nH]c1=O | NCI60 panel | SRB | – | 10 µM | – | mean cell growth | 2.3% |
| C=C(C)C(=O)Nc1ccc(-c2c(-c3ccc(Oc4nccc(C)n4)c(F)c3)c3c(N)ncnc3n2C)cc1 | MFM-223 | cell proliferation, live-cell imaging (IncuCyte) | – | concentration not given, single agent, from treatment start | – | time to proliferation rebound | ~34 days |
| CCOC(=O)Oc1ccc2c(c1OC(=O)OCC)C(=O)c1ccccc1C2=O | NAT1 (Homo sapiens, UniProt P18440) | O-acetyltransferase activity, inhibitor | MDA-MB-231 cell lysate | with: 100 µM N-hydroxy-4-aminobiphenyl and 1 mM acetyl-CoA | – | IC50 | 1.03 ± 0.24 µM |
| CC(C)CC(NC(=O)C(Cc1ccccc1)NC(=O)c1cnc(C(=O)NC(Cc2ccccc2)C(=O)NC(CC(C)C)B(O)O)cn1)B(O)O (stereo not drawn) | PSMB6 (Homo sapiens, UniProt P28072) | caspase-like activity, inhibitor, Proteasome-Glo | U-266 | 24 h | – | IC50 | 0.0134 ± 0.00056 µM |
| NS(=O)(=O)c1nnc(NC(=O)C2C3CC2C3)s1 (stereo not drawn) | alpha-carbonic anhydrase (Enterococcus faecium, UniProt Q3XYE8) | CO2 hydration, inhibitor, stopped-flow kinetics | – | – | – | Ki | 0.0251 µM |
| CC(C)C[C@H](NC(=O)[C@H](C)NC(=O)[C@H](CCCNC(=N)N)NC(=O)[C@H](CCCNC(=N)N)NC(=O)[C@H](CCCNC(=N)N)NC(=O)[C@H](C)NC(=O)[C@H](CC(C)C)NC(=O)[C@H](CCCNC(=N)N)NC(=O)[C@H](CO)NC(=O)[C@H](CCCCN)NC(=O)[C@H](CO)NC(=O)Cn1cc(COC(=O)[C@]2(C)C=C(C(=O)OC(C)(C)C)C(=O)CC2)nn1)C(=O)O | MAPK14 (Homo sapiens, UniProt Q16539) | enzyme activity, inhibitor, D-SENSOR kinase | – | 0.003387 µM, unit not given | baseline: untreated | remaining activity | 0.999 and 0.892 and 0.943 |
| O=C(NCc1ccco1)C1CN(c2cc(-c3cc(F)cc(F)c3)n[nH]c2=O)C1 | ITK (Homo sapiens, UniProt Q08881) | kinase activity, inhibitor, ADP-Glo | – | – | – | IC50 | 0.19 µM |
| COc1ccc2c(c1)OC(c1ccc(O)cc1)CC2 (stereo not drawn) | ALOX5 | 5-LOX product formation, RP-HPLC | human PMNL | with: A23187 and arachidonic acid | – | IC50 | 5.7 ± 0.9 µM |
| CC(=O)C12NC(C)(C)CC1(C)C(=O)C1=C2c2c(c3c4n2C(C)(C)CC2=C4C4(CC(C)(C)NC(C)(C4)C2=O)CC3(C)C)C(=O)C(C)(C)N1 (single isomer, unassigned) | SCN2A (Homo sapiens, UniProt Q99250) | sodium current, inhibitor | – | – | – | IC50 | 23.9 ± 2.7 µM |

Some of these lines once more:
| Structure (SMILES) | target or system | assay | test system | setting | scale | measurement | value |
| --- | --- | --- | --- | --- | --- | --- | --- |
| CCOC(=O)c1c(-c2ccc(Cl)cc2Cl)n(-c2nc(-c3ccc(Cl)cc3)c3c(NC(=O)c4ccccc4)nnc-3[nH]2)[nH]c1=O | NCI60 panel | SRB | – | 10 µM | – | mean cell growth | 2.3% |
| C=C(C)C(=O)Nc1ccc(-c2c(-c3ccc(Oc4nccc(C)n4)c(F)c3)c3c(N)ncnc3n2C)cc1 | MFM-223 | cell proliferation, live-cell imaging (IncuCyte) | – | concentration not given, single agent, from treatment start | – | time to proliferation rebound | ~34 days |
